Published values of several laboratories.
A part holds a random share of what one study measured. Changes are numbered by the printed parent chain.

Sample 1
Target: CCNB2, cyclin fold, Cln2 fusion (human)
Method: yeast growth competition, sequencing
Medium: yeast
Notes: weak parent motif
Relative to: not given
Reading: higher = stronger binding
Measurement: normalised enrichment score
Starting sequence: E2F7 docking peptide (human); SSAQRRLEIPSGG
R5A: 0.0882
S1A: 0.401
I9A: 0.0708
I9F: 0.0434
P10A: -0.0499
G13A: 0.181
I9L: 0.288
S11A: -0.0664

Sample 2
Target: Interferon regulatory factor 7, full length, phosphomimetic (IRF7, Homo sapiens, UniProt Q92985, residues 1-503, S101K/S471D/S472D/S475D/S476D/S477D/S483D/S484D/S487D)
Method: protein-binding microarray
Molecule type: double-stranded DNA, one strand shown
Medium: in vitro
Concentration: 250 nM
Notes: 60-bp whole probe
Together with: salmon DNA 0.4 mg/ml
Relative to: random background probes
Reading: higher = stronger binding
Measurement: log fluorescence
All sequences stand within: GCCTAGCAC … GTCTTGATTCGCTTGACGCTGCTG
Construct (chain): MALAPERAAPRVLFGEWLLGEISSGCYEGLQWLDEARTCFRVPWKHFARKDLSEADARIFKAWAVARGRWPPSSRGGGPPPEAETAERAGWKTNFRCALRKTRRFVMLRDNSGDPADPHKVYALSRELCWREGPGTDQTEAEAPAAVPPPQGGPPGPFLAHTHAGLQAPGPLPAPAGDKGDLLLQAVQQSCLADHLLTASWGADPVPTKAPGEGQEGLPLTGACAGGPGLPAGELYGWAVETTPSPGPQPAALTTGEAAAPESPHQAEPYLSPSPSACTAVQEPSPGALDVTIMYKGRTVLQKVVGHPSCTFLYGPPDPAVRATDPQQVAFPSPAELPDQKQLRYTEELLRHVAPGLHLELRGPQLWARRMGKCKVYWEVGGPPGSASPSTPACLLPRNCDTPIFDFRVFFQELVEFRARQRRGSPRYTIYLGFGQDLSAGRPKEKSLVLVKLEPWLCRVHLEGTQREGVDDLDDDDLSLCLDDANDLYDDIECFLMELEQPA
TTAGGTCTCGGTTTCGGTTCGTGCTAG: 12.9 z-score
GGCGGTATCGACTTTCGGGACGTGCTA: 0.901 z-score
TCCCCGGAGCTGGACAGAAGGTGCTAG: -0.72 z-score
GACGATGTCAGTTCCGAGACGTGCTAG: -0.14 z-score
ATATATATTCATATATATATGTGCTAG: 1.14 z-score
GACGGTATCGACTCTCGGGACGTGCTA: 0.856 z-score
GTAGATTTCAGTTCCGATTAGTGCTAG: 1.26 z-score
TCCACTTTGACTTAAGAGGCGTGCTAG: 0.191 z-score
CTGTGTACATCTCTCTTAAAGTGCTAG: -0.0781 z-score
GACGATCTCAGCTTCGAGACGTGCTAG: -0.122 z-score
CCCCCTTTTATATTGTAAGCGTGCTAG: 0.459 z-score
TTAGAACTGGGGTATCGATGAGTGCTA: -0.558 z-score
TCACCTATAGGTTCAACACTGTGCTAG: 0.052 z-score
TCATTTATATGCTATGTAACTGTGCTA: 1.09 z-score
TCATGTGTCTGATTATTACTGTGCTAG: 0.102 z-score

Sample 3
Target: RNA binding protein fox-1 homolog 2, RRM domain, GST-SBP tag (RBFOX2, Homo sapiens, UniProt O43251-10, residues 100-194)
Method: RNA Bind-n-Seq
Molecule type: RNA
Medium: in vitro
Concentration: 365 nM
Notes: natural RNA segment, single round, ends assumed
Relative to: no-protein control
Reading: higher = stronger binding
Measurement: RBNS enrichment (R)
All sequences stand within: GGGAGUUCUACAGUCCGACGAUC … UGGAAUUCUCGGGUGCCAA
Target sequence (chain): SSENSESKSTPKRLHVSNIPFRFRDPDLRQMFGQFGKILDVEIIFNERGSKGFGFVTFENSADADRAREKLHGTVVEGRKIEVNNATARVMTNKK
CUCUGGAAGAAACACCAAAGCCUGCUGGAAAGGAAAGCGUUUGAAGAAAGAAUUGUCCUCCUGUAGGUUCCAUUCCUUCGGAUGGGCCUACCUUACCAUUGUUAGGACAG: 0.41
GAUGGUGAUGAUAAGAAAAGGCCAGUGAUUGUUCAUCGAGCCAUCUUGGGAUCAGUGGAAAGAAUGAUUGCUAUCCUCACAGAAAACUAUGGGGGCAAAUGGCCCUUUUG: 1.65
AACUCCUUCCCUGCUGCUGAGUGGAGAGAGGCCUCAUCCGGCUUUGACCCACCAUCCGUUGCAGAAGCCUCCAGGAGCAGCAAUCCUAAGAGUGGGAGGCAGCCAAGACC: 0.196
CCUGUUAGAGUUGCUUCUCCUCUAGUUUGUAACUUACUGGACUUUUGUGGAAAAUAUCAGCGUCGCUACCCUCAGAAACAAACUAACAGCACACGUUAGGAGGAGUCCUC: 0.455
UAACAUCAGCCUUCCUCGCCCAUCUCUUUCCAUCUGUCUCUUCUUCAUUAAACACUUACUGAGUAUGAUUUCUGUGUCAGGCAGUGGUUUUCAUUUGUGGGGACGUGUCG: 0.487
AUAAGAGUCAGCAUGGAGAGCCCCUGCUAAUGGAGUACAGCCGCCAGGAGCUACUCAGGAAGGAACGUCUGGUCCUAACCAGUGAGCACUGGUUAGUACUGGUCCCCUUC: 0.184
GUGAUGAUGAUUUCUUUUCCCUGCACACAUCUUUCCGGUGCAAUAUCUAUCAAUUGUGAAUCUGGCUGCUGGUGUAUAAAAACCUGGAUGUAAAGCUGAGCCUACAGACC: 0.515
GAGUGAUCUAUGUCUCUUCCCCCCAGCAGCUGGGACCAGUCCUAGCCCCGUCCCCAACCCCUUUCCCUUGGGGAGUUGGGGGAAUUCCUGCCAAGCACCUUGAAUGGGAG: 0.316

Other studies, line by line
PhoQ, residues 284 288 289 292 302 303 TTCLQL
fold induction (PhoP, residues 12 14 15 18 19 GHCSL (Escherichia coli, UniProt P23836); Sort-seq, refers to: YFP reporter; E. coli; PhoQ-PhoP variant library, together with: 10 µM Mg2+; relative to: high Mg2+ state, higher = stronger signaling): 8.81

A few entries again (sample 2):
TTAGAACTGGGGTATCGATGAGTGCTA: -0.558 z-score
TCCCCGGAGCTGGACAGAAGGTGCTAG: -0.72 z-score
TTAGGTCTCGGTTTCGGTTCGTGCTAG: 12.9 z-score
ATATATATTCATATATATATGTGCTAG: 1.14 z-score
